Experimental data of several laboratories.
Each line is one published result; not all experiments were run side by side. ± gives the spread as reported.

`C/C=C/C=C/C/C=C/CCCCCCCc1cccc(O)c1O` has a tissue concentration of 5850 ± 740 ng/g (female Kunming mice, tumour-bearing, spleen; intravenous, 10 mg/kg, 8 h).
`CCCC[C@H](NC(=O)CCOCCOCCNC(=O)CN1CCN(CC(=O)O)CCN(CC(=O)O)CCN(CC(=O)O)CC1)C(=O)N[C@H]1CC(=O)NCCCC[C@@H](C(N)=O)NC(=O)[C@H](Cc2c[nH]c3ccccc23)NC(=O)[C@H](CCCNC(=N)N)NC(=O)[C@@H](Cc2ccccc2)NC(=O)[C@H](Cc2c[nH]cn2)NC1=O` [gallium-68 labelled] has a tissue uptake of 0.1 ± 0.1 %ID/g (C57BL/6J mice male B16-F10 tumour, fat; 1 h post injection, unblocked).
`COc1ccc(C)cc1NC(=O)OC1CC2CCCC(C1)N2Cc1ccc(CC[18F])cc1` (stereo not drawn) gave a tissue uptake of 21.1 ± 3.59 %ID/g (BALB/c mice, EMT6 tumour, liver; 5 min).
`COC(=O)C[C@](O)(CCCC(C)(C)OC(C)=O)C(=O)O[C@@H]1C(OC)=C[C@]23CCCN2CCc2cc4c(cc2[C@H]13)OCO4` — result for tissue concentration: “not detected” (CD1 mice, esophagus; oral, 1 mg/kg, 24 h).
For `CC(C)C[C@@H](NC(=O)[C@@H](CCCNC(=N)N)NC(=O)[C@@H](Cc1c[nH]cn1)NC(=O)[C@@H](Cc1c[nH]c2ccccc12)NC(=O)[C@@H](Cc1c[nH]cn1)NC(=O)[C@@H](Cc1ccccc1)NC(=O)[C@H](NC(=O)[C@@H](Cc1ccc(O)cc1)NC(=O)CNC(=O)CNC(=O)CCOCCOCCOCCNC(=O)CN1CCN(CC(=O)O)CCN(CC(=O)O)CC1)[C@H](C)O)C(=O)N[C@H](CC(N)=O)C(=O)N1CCC[C@@H]1C(=O)O` [gallium-68 labelled], the tissue ratio was 11.1 ± 2.18 (C57BL/6 mice, male; intravenous, 1.85 MBq, 60 min; relative to: tumour over muscle).
For `C[C@]12CC[C@H](OCC[18F])C[C@H]1CC[C@@H]1[C@@H]2CC[C@]2(C)[C@@H](c3ccc(=O)oc3)CC[C@]12O`, the tissue uptake was 3.21 ± 0.57 %ID/g (male BALB/c nude mice, SMMC-7721 xenograft, kidney; intravenous, 7.4 MBq, 120 min).
The tissue concentration of `[3H]c1sc(C)nc1C=C(C)C1CC2C(CCCC(C)C(O)C(C)C(=O)C(C)(C)C(O)CC(=O)O1)N2CCO` (stereo not drawn) is reported as 1380 ± 40 ng/g (LC-MS/MS; CD2F1 mice tumour-bearing, kidney; intravenous, 2.2 nmol/kg, 24 h).
The tissue ratio of `NC(=O)[C@@H](CCCCNC(=O)CNC(=O)CCC(=O)NCCc1c[nH]cn1)NC(=O)[C@@H](Cc1ccc(O)cc1)NC(=O)[C@@H](CCCCNC(=O)CNC(=O)CCC(=O)NCCc1c[nH]cn1)NC(=O)Cc1ccc(CN2CCN(CC(=O)O)CCN(CC(=O)O)CC2)cc1` [fluorine-18 labelled] is reported as 110 ± 43 (tumour-bearing nude mice; intravenous, 1 h, TF2 pretargeting; relative to: tumour over blood).
With `Cc1cc(O)cc(C)c1C[C@H](NC(=O)[C@H](N)CCCNC(=N)N)C(=O)N[C@@H](CCCCN)C(=O)N[C@@H](Cc1ccccc1)C(N)=O` the tissue concentration was 740 ± 40 ng/g (ICR mice, acute kidney injury, kidney; 2 mg/kg, 4 h).
The tissue uptake of `CCCC[C@H](NC(=O)CN1CCC(NC(=O)CN2CCC(NC(=O)CN3CCN(CC(=O)O)CCN(CC(=O)O)CCN(CC(=O)O)CC3)CC2)CC1)C(=O)N[C@H]1CC(=O)NCCCC[C@@H](C(N)=O)NC(=O)[C@H](Cc2c[nH]c3ccccc23)NC(=O)[C@H](CCCNC(=N)N)NC(=O)[C@@H](Cc2ccccc2)NC(=O)[C@H](Cc2c[nH]cn2)NC1=O` [gallium-68 labelled] is reported as 0.2 %ID/g (C57BL/6J mice male B16-F10 tumour, heart; 1 h post injection, unblocked).
Under “tissue concentration decrease”, `Cn1cc(-c2cccc(CN3CCC4(CC3)COc3c4ccc4c3CN([C@H]3CCC(=O)NC3=O)C4=O)c2)cn1` is recorded as > 90% (Crbn I391V mice, spleen and thymus; dose not given, 24 h).
`COc1cc(C(=O)NCCOCCOCCOCCNC(=O)c2ccc([18F])nc2)ccc1NC(=O)C1NC(CC(C)(C)C)C(C#N)(c2ccc(Cl)cc2F)C1c1cccc(Cl)c1F` (stereo not drawn) has a tissue uptake of 5.77 ± 2.59 %ID/g (athymic male mice, HepG2 xenograft, small intestine; 2 h).

Excerpt of the above:
For `C[C@]12CC[C@H](OCC[18F])C[C@H]1CC[C@@H]1[C@@H]2CC[C@]2(C)[C@@H](c3ccc(=O)oc3)CC[C@]12O`, the tissue uptake was 3.21 ± 0.57 %ID/g (male BALB/c nude mice, SMMC-7721 xenograft, kidney; intravenous, 7.4 MBq, 120 min).
The tissue concentration of `[3H]c1sc(C)nc1C=C(C)C1CC2C(CCCC(C)C(O)C(C)C(=O)C(C)(C)C(O)CC(=O)O1)N2CCO` (stereo not drawn) is reported as 1380 ± 40 ng/g (LC-MS/MS; CD2F1 mice tumour-bearing, kidney; intravenous, 2.2 nmol/kg, 24 h).
